Measurements gathered from unrelated publications.
Values joined by “and” are separate records of one study, mostly repeats; a detail may differ.
rep papain-like protease: Replicase polyprotein 1ab, papain-like protease (rep, Severe acute respiratory syndrome coronavirus 2, UniProt P0DTD1)
rep main protease: Replicase polyprotein 1ab, main protease (rep, Severe acute respiratory syndrome coronavirus 2, UniProt P0DTD1)

For `CCCCCCCCCCCCCCCC(=O)N[C@@H](CCC(=O)NCCOCCOCCC(=O)NCCOCCOCCC(=O)NCCCC[C@H](NC(=O)[C@H](CC(=O)O)NC(=O)[C@H](CC(C)C)NC(=O)[C@H](Cc1ccc(O)cc1)NC(=O)[C@H](CCCCN)NC(=O)[C@H](CO)NC(=O)[C@H](Cc1ccc(O)cc1)NC(=O)[C@H](CC(=O)O)NC(=O)[C@H](CO)NC(=O)[C@@H](NC(=O)[C@H](Cc1ccccc1)NC(=O)[C@@H](NC(=O)CNC(=O)[C@H](CCC(N)=O)NC(=O)[C@@H](CO)NC(=O)[C@@H](N)Cc1c[nH]cn1)[C@@H](C)O)[C@@H](C)O)C(=O)N[C@@H](CCCNC(=N)N)C(=O)N[C@@H](CCCNC(=N)N)C(=O)N[C@@H](C)C(=O)N[C@@H](CCC(N)=O)C(=O)N[C@@H](CC(=O)O)C(=O)N[C@@H](Cc1ccccc1)C(=O)N[C@H](C(=O)N[C@@H](CCC(N)=O)C(=O)N[C@@H](Cc1c[nH]c2ccccc12)C(=O)N[C@@H](CC(C)C)C(=O)N[C@@H](CC(C)C)C(=O)N[C@@H](CC(N)=O)C(=O)N[C@H](C(=O)NCC(=O)NCC(=O)N1CCC[C@H]1C(=O)N[C@@H](CO)C(=O)N[C@@H](CO)C(=O)NCC(=O)N[C@@H](C)C(=O)N1CCC[C@H]1C(=O)N1CCC[C@H]1C(=O)N1CCC[C@H]1C(=O)N[C@@H](CO)C(N)=O)[C@@H](C)O)C(C)C)C(=O)O`, the AUC(0-t) was 90.7 ng·h/mL (rhesus monkey, plasma; subcutaneous, 20 µg/kg, multiple doses).
`CC(=O)Nc1ccc(-c2cnc(N3C(=O)C(Cl)C3c3cc4ccccc4nc3Cl)s2)cc1` (centres unmarked) has an inhibition of 77.9% (rep papain-like protease; enzyme activity, inhibitor; 10 µM).
`COc1cccc2c1C(=O)C=CC2=O` has an inhibition of 95.9% (rep main protease; enzyme activity, inhibitor; 10 µM).
`O=c1c2ccccc2sn1-c1ccccc1` has an inhibition of 97.3% (rep main protease; enzyme activity, inhibitor; 10 µM).
`O=C(NC1CCC(F)(F)CC1)C(c1cncnc1)N(C(=O)C(F)Cl)c1ccc(OC(F)(F)F)cc1` (centres unmarked) gave an inhibition of 99.6% and 96.9% (rep main protease; enzyme activity; 25 µM).
The inhibition of `O=C(Oc1cncc(Cl)c1)c1cccc2[nH]ccc12` is reported as 100% (rep main protease; enzyme activity, inhibitor, fluorescence; 10 µM, pH 7.2).
`CC(C)[C@@H]1CC[C@@H](C)C[C@H]1n1[se]c2ccccc2c1=O` has an inhibition of 102% (rep main protease; enzyme activity, inhibitor; 40 µM).
`COc1cc(C(=O)N(CCC(=O)N2CCNCC2)Cc2cccc(Cl)c2)cc(OC)c1OC`: inhibition “inhibited” (Replicase polyprotein 1ab, nsp3 macrodomain (rep, Severe acute respiratory syndrome coronavirus 2, UniProt P0DTD1); ADP-ribosylhydrolase activity, gel-based; concentration not given).
`O=C(OCC(=O)c1ccc([N+](=O)[O-])cc1)/C(=C/c1ccc(Cl)cc1)NC(=O)c1ccccc1` gave an inhibition of 99.3% (rep main protease; enzyme activity, inhibitor; 100 µM).
With `O=C(CCc1ccccc1)NOC(=O)OCc1ccccc1` the inhibition was roughly 90% (rep main protease; enzyme activity; 1.25 µM, 100 min preincubation).
`O=C(Oc1cncc(Cl)c1)c1ccc2cc[nH]c2c1` gave an inhibition of 100% (rep main protease; enzyme activity, inhibitor, fluorescence; 10 µM, pH 7.2).
`Cc1ccnc(-n2[se]c3ccccc3c2=O)c1` gave an inhibition of 14.6% (rep main protease; enzyme activity, inhibitor; 0.3 µM).
`C=C1CC[C@@H]2[C@](C)(COC(C)=O)[C@H](OC(C)=O)CC[C@@]2(C)[C@@H]1C[C@H](SC(=S)N1CCN(C(c2ccccc2)c2ccc(Cl)cc2)CC1)C1=CCOC1=O` (some centres unmarked) has an inhibition of greater than 50% (rep main protease; enzyme activity, inhibitor, fluorescence; 10 µM).
With `C[C@](C(=O)NC1CCOCC1)(c1cncnc1)N(C(=O)[C@H](F)Cl)c1ccc(OC(F)(F)Cl)cc1` the inhibition was 98.9% (rep main protease; enzyme activity, inhibitor; 3.333 µM).
With `CCOc1cc(/C=N/NC(=O)COCC(=O)N/N=C/c2ccc(O)c(OCC)c2)ccc1O` the inhibition was 0% (rep papain-like protease; enzyme activity, inhibitor; 100 µg/mL).
The inhibition of `O=C(NC1CCN(c2ncnc3[nH]cnc23)CC1)c1cccc(NS(=O)(=O)c2ccc(C(F)(F)F)cc2)c1` is reported as 10.4% (Replicase polyprotein 1ab, nsp14 with nsp10 (rep, Severe acute respiratory syndrome coronavirus 2, UniProt P0DTD1); exonuclease activity; SARS-CoV-2; 12.5 µM).
For `OCC1OC(Oc2cc3c(O)cc(O)cc3[o+]c2-c2ccc(O)c(O)c2)C(O)C(O)C1O` (centres unmarked), the inhibition was 22.6% (rep main protease; enzyme activity, inhibitor; 50 µM).
`O=c1c2ccccc2[se]n1-c1ccncc1` has an inhibition of 66% (rep main protease; enzyme activity, inhibitor; 0.3 µM).
The inhibition of `C[C@H]1CC[C@@H]2[C@H]([C@@H]1n1[se]c3ccccc3c1=O)C2(C)C` is reported as 102% (rep main protease; enzyme activity, inhibitor; 40 µM).
For `C[C@](C(=O)NC1CCC(F)(F)CC1)(c1cncnc1)N(C(=O)[C@H](F)Cl)c1ccc(OC(F)(F)F)cc1`, the inhibition was 99% (rep main protease; enzyme activity, inhibitor; 25 µM).
The inhibition of `CCOC(=O)CC[C@@H](C(=O)OCC)n1[se]c2ccccc2c1=O` is reported as 101% (rep main protease; enzyme activity, inhibitor; 40 µM).
`Cc1cnccc1-n1[se]c2ccccc2c1=O` has an inhibition of 75.1% (rep main protease; enzyme activity, inhibitor; 0.3 µM).
The inhibition of `O=C(NC1CCC(F)(F)CC1)C(c1cncnc1)N(C(=O)C(F)Cl)c1ccc(-c2cncs2)cc1` (centres unmarked) is reported as 94.9% (rep main protease; enzyme activity, inhibitor; 0.309 µM).
The inhibition of `O=C(O)CC[C@H](NC(=O)c1ccccc1[Se][Se]c1ccccc1C(=O)N[C@@H](CCC(=O)O)C(=O)O)C(=O)O` is reported as 20.8% and 25.7% (rep main protease; enzyme activity, inhibitor; 40 µM).
`COc1ccc2[nH]cc(CCN/C(=N\C(=O)CSc3nnc(N)s3)Nc3nc(C)cc(C)n3)c2c1` gave an inhibition of 0% (rep papain-like protease; enzyme activity, inhibitor; 100 µg/mL).
For `CCOC(=O)[C@H](C(C)C)n1[se]c2ccccc2c1=O`, the inhibition was 105% (rep main protease; enzyme activity, inhibitor; 40 µM, mean of repeats).
`COc1ccc(-c2cc(=O)c3c(O)cc(O)cc3o2)cc1Oc1ccc(-c2cc(=O)c3c(O)cc(O)cc3o2)cc1` has an inhibition of 60.7% (rep papain-like protease; enzyme activity, inhibitor; 2.5 µM).
`COc1cc(Oc2c(O)cc(C)c(Br)c2OC)c(C(=O)O)c(C)c1O` gave an inhibition of 46.7% (rep main protease; enzyme activity, inhibitor, FRET; 10 µM).
The inhibition of `CC[C@@H](C)[C@H](NC(=O)c1ccccc1[Se][Se]c1ccccc1C(=O)N[C@H](C(=O)O)[C@H](C)CC)C(=O)O` is reported as 73.5% and 70.9% (rep main protease; enzyme activity, inhibitor; 40 µM).

Excerpt of the above:
`C=C1CC[C@@H]2[C@](C)(COC(C)=O)[C@H](OC(C)=O)CC[C@@]2(C)[C@@H]1C[C@H](SC(=S)N1CCN(C(c2ccccc2)c2ccc(Cl)cc2)CC1)C1=CCOC1=O` (some centres unmarked) has an inhibition of greater than 50% (rep main protease; enzyme activity, inhibitor, fluorescence; 10 µM).
`O=c1c2ccccc2sn1-c1ccccc1` has an inhibition of 97.3% (rep main protease; enzyme activity, inhibitor; 10 µM).
With `CCOc1cc(/C=N/NC(=O)COCC(=O)N/N=C/c2ccc(O)c(OCC)c2)ccc1O` the inhibition was 0% (rep papain-like protease; enzyme activity, inhibitor; 100 µg/mL).
For `OCC1OC(Oc2cc3c(O)cc(O)cc3[o+]c2-c2ccc(O)c(O)c2)C(O)C(O)C1O` (centres unmarked), the inhibition was 22.6% (rep main protease; enzyme activity, inhibitor; 50 µM).
`COc1cccc2c1C(=O)C=CC2=O` has an inhibition of 95.9% (rep main protease; enzyme activity, inhibitor; 10 µM).
